Measured values of several laboratories.
Numbered parts are unrelated; each lists some results of a single study.

Sample 1
Target: Histone acetyltransferase KAT6A, winged helix 2, GST fusion (KAT6A, Homo sapiens, UniProt Q92794, residues 85-181)
Method: protein binding microarray
Form: double-stranded DNA, one strand shown
Medium: in vitro
Tested at: not given
Setting: 8-mer, flanks averaged, mean of 2 arrays, mostly near background
Relative to: not given
Reading: higher = stronger binding
Target sequence (chain): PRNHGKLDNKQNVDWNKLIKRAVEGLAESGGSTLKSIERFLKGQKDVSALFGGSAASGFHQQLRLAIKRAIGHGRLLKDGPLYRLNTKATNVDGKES
Strand | E-score
AGTCGTGA | -0.0978
ATTAGGCG | 0.149
AAACGATA | -0.0923
ATCACCTA | -0.209
CCGCTAAG | 0.0832

Sample 2
Target: Sal-like protein 4, full length isoform B (SALL4, Homo sapiens, UniProt Q9UJQ4-2, residues 1-616)
Method: universal PBM
Form: double-stranded DNA, one strand shown
Medium: in vitro
Tested at: not given
Setting: 8-mer, flanks averaged, mean of replicates
Reading: higher = stronger binding
Residues (chain): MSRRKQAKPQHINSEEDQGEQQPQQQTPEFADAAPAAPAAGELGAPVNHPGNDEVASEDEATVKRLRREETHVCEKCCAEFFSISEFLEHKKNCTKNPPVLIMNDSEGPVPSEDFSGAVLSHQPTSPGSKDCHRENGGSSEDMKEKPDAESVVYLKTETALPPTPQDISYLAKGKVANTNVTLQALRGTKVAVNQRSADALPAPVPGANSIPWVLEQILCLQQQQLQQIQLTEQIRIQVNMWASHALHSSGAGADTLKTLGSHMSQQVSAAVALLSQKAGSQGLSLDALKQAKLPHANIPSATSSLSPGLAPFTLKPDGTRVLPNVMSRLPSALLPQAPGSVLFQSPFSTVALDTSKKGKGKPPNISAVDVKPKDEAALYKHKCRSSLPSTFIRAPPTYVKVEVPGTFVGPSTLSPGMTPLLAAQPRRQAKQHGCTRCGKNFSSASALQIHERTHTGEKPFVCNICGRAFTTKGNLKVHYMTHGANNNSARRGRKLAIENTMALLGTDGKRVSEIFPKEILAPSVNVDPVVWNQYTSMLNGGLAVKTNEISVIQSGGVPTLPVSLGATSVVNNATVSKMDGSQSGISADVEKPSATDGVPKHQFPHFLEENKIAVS
Strand | E-score
GGACTTAC | 0.00124
CGGAATCA | 0.00227
CAGGGATC | -0.228
ATTAGGTC | 0.187

Sample 3
Target: Interferon regulatory factor 3, full length, phosphomimetic (IRF3, Homo sapiens, UniProt Q14653, residues 1-427, S386D/S396D/S398D/S402D/T404D/S405D)
Sequence of UniProt Q14653 (whole entry, unmodified, looked up): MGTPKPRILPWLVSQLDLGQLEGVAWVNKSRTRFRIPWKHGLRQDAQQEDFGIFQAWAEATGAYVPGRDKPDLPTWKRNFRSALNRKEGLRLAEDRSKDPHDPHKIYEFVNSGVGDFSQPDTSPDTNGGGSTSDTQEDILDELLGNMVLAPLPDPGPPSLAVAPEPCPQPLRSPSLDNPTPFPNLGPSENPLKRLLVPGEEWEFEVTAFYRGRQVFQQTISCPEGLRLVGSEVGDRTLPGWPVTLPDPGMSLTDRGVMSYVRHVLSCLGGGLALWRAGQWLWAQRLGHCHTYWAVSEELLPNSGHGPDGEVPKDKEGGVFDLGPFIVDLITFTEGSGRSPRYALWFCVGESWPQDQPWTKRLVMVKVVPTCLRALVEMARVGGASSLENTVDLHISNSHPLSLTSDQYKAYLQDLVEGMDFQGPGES
Method: protein-binding microarray
Form: double-stranded DNA, one strand shown
Medium: in vitro
Tested at: 2540 nM top
Setting: 60-bp whole probe
With: salmon DNA 0.4 mg/ml
Relative to: random background probes
Reading: higher = stronger binding
Strand | fitted relative affinity
GCCTAGCACTCAACTTTGACTTAAGAACTGTGCTAGGTCTTGATTCGCTTGACGCTGCTG | -0.188 z-score
GCCTAGCACTTAGGACTGGGGACTGCGTTAGTGCTAGTCTTGATTCGCTTGACGCTGCTG | -1.13 z-score
GCCTAGCACAGGGAGGTCTCTCCCGACCTGTGCTAGGTCTTGATTCGCTTGACGCTGCTG | -0.672 z-score
GCCTAGCACGGCGGACTGGGTTTCGGGACGTGCTAGGTCTTGATTCGCTTGACGCTGCTG | 0.779 z-score

Single results of other studies
Substance | target | assay | system | conditions | scale | endpoint | value
PhoQ, residues 284 288 289 292 302 303 NSMLDC | PhoP, residues 12 14 15 18 19 AQALL (Escherichia coli, UniProt P23836) | Sort-seq, measured: YFP reporter | E. coli | PhoQ-PhoP variant library, with: 10 µM Mg2+ | relative to: high Mg2+ state, higher = stronger signaling | fold induction | 15
